Results from different studies.
Each line is one published result; not all experiments were run side by side. ± gives the spread as reported.

`N=C(N)NCCC[C@@H]1NC(=O)[C@H](CCCCNC(=O)CCOCCOCCOCCOCCNC(=O)CC[C@H](NC(=O)[C@H](CCCCNC(=O)c2ccc(NN)nc2)NC(=O)c2ccc(NN)nc2)C(=O)NCCOCCOCCOCCOCCC(=O)NCCCC[C@@H]2NC(=O)[C@@H](Cc3ccccc3)NC(=O)[C@H](CC(=O)O)NC(=O)CNC(=O)[C@H](CCCNC(=N)N)NC2=O)NC(=O)[C@@H](Cc2ccccc2)NC(=O)[C@H](CC(=O)O)NC(=O)CNC1=O` [technetium-99m labelled] gave a tissue uptake of 0.14 ± 0.03 %ID/g (female athymic nude mice, brain; intravenous, 0.1 MBq, 1 h, U-87 MG glioma xenograft).
With `CSCC[C@H](NC(=O)[C@H](CC(C)C)NC(=O)[C@H](Cc1c[nH]cn1)NC(=O)CNC(=O)[C@@H](NC(=O)[C@H](C)NC(=O)[C@H](Cc1c[nH]c2ccccc12)NC(=O)[C@H](CCC(N)=O)NC(=O)CNC(=O)[C@H](CO)NC(=O)CNC(=O)CCCCCCCNC(=O)CCC(=O)Nc1ccc(CNC23CNCCNCC(N)(CNCCNC2)CNCCNC3)cc1)C(C)C)C(N)=O` [copper-64 labelled] the tissue uptake was 29.9 ± 1.6 %ID/g (female SCID mice, PC-3 xenograft, pancreas; intravenous, 0.6 MBq, 24 h).
For `N=C(N)NCCC[C@@H]1NC(=O)[C@H](CCCCNC(=O)CC[C@H](NC(=O)CCOCCOCCOCCOCCNC(=O)CC[C@H](NC(=O)CN2CCN(CC(=O)O)CCN(CC(=O)O)CCN(CC(=O)O)CC2)C(=O)NCCOCCOCCOCCOCCC(=O)N[C@@H](CCC(=O)NCCCC[C@@H]2NC(=O)[C@@H](Cc3ccccc3)NC(=O)[C@H](CC(=O)O)NC(=O)CNC(=O)[C@H](CCCNC(=N)N)NC2=O)C(=O)NCCCC[C@@H]2NC(=O)[C@@H](Cc3ccccc3)NC(=O)[C@H](CC(=O)O)NC(=O)CNC(=O)[C@H](CCCNC(=N)N)NC2=O)C(=O)NCCCC[C@@H]2NC(=O)[C@@H](Cc3ccccc3)NC(=O)[C@H](CC(=O)O)NC(=O)CNC(=O)[C@H](CCCNC(=N)N)NC2=O)NC(=O)[C@@H](Cc2ccccc2)NC(=O)[C@H](CC(=O)O)NC(=O)CNC1=O` [indium-111 labelled], the tissue uptake was 8.98 ± 3.47 %ID/g (female athymic nude mice, intestine; intravenous, 3 µCi, 1 h, U-87 MG glioma xenograft).
The tissue uptake of `N=C(N)NCCC[C@@H]1NC(=O)[C@H](CCCCNC(=O)CCOCCOCCOCCOCCNC(=O)CC[C@H](NC(=O)CCOCCOCCOCCOCCNC(=O)[C@H](CCCCNC(=O)c2ccc(NN)nc2)NC(=O)c2ccc(NN)nc2)C(=O)NCCOCCOCCOCCOCCC(=O)NCCCC[C@@H]2NC(=O)[C@@H](Cc3ccccc3)NC(=O)[C@H](CC(=O)O)NC(=O)CNC(=O)[C@H](CCCNC(=N)N)NC2=O)NC(=O)[C@@H](Cc2ccccc2)NC(=O)[C@H](CC(=O)O)NC(=O)CNC1=O` [technetium-99m labelled] is reported as 4.41 ± 2.07 %ID/g (athymic nude mice, intestine; intravenous, 60 min, blocking, together with: excess RGD2 14 mg/kg co-injected).
`N=C(N)NCCC[C@@H]1NC(=O)[C@H](CCCCNC(=O)CCOCCOCCOCCOCCNC(=O)CC[C@H](NC(=O)CCOCCOCCOCCOCCNC(=O)CC[C@H](NC(=O)CN2CCN(CC(=O)O)CCN(CC(=O)O)CCN(CC(=O)O)CC2)C(=O)NCCOCCOCCOCCOCCC(=O)N[C@@H](CCC(=O)NCCOCCOCCOCCOCCC(=O)NCCCC[C@@H]2NC(=O)[C@@H](Cc3ccccc3)NC(=O)[C@H](CC(=O)O)NC(=O)CNC(=O)[C@H](CCCNC(=N)N)NC2=O)C(=O)NCCOCCOCCOCCOCCC(=O)NCCCC[C@@H]2NC(=O)[C@@H](Cc3ccccc3)NC(=O)[C@H](CC(=O)O)NC(=O)CNC(=O)[C@H](CCCNC(=N)N)NC2=O)C(=O)NCCOCCOCCOCCOCCC(=O)NCCCC[C@@H]2NC(=O)[C@@H](Cc3ccccc3)NC(=O)[C@H](CC(=O)O)NC(=O)CNC(=O)[C@H](CCCNC(=N)N)NC2=O)NC(=O)[C@@H](Cc2ccccc2)NC(=O)[C@H](CC(=O)O)NC(=O)CNC1=O` [indium-111 labelled] has a tissue uptake of 0.06 %ID/g (female athymic nude mice, blood; intravenous, 3 µCi, 72 h, U-87 MG glioma xenograft).
With `CSCC[C@H](NC(=O)[C@H](CC(C)C)NC(=O)[C@H](Cc1c[nH]cn1)NC(=O)CNC(=O)[C@@H](NC(=O)[C@H](C)NC(=O)[C@H](Cc1c[nH]c2ccccc12)NC(=O)[C@H](CCC(N)=O)NC(=O)CCCCCCCNC(=O)CCC(=O)Nc1ccc(CNC23CNCCNCC(N)(CNCCNC2)CNCCNC3)cc1)C(C)C)C(N)=O` [copper-64 labelled] the tissue uptake was 1.74 ± 0.525 %ID/g (female SCID mice, PC-3 xenograft, bone; intravenous, 0.6 MBq, 1 h).
`N=C(N)NCCC[C@H](NC(=O)[C@H](CCCCN)NC(=O)[C@H](CCC(N)=O)NC(=O)CCOCCOCCOCCNC(=O)CN1CCN(CC(=O)O)CCN(CC(=O)O)CCN(CC(=O)O)CC1)C(=O)N[C@@H](CCCCN)C(=O)N[C@@H](CCCNC(=N)N)C(=O)N[C@@H](CCCCN)C(=O)N[C@@H](CCCCN)C(=O)N[C@@H](CO)C(=O)N[C@@H](CCCNC(=N)N)C(=O)N[C@@H](Cc1ccc(O)cc1)C(=O)N[C@@H](CCCCN)C(=O)N[C@@H](CO)C(=O)O` [copper-64 labelled] has a tissue uptake of 157 ± 8.63 %ID/g (C57BL/6 mice, B16-F10 tumour, kidney; intravenous, 60 min).
For `CC(C)C[C@H](NC(=O)[C@H](Cc1ccc(O)cc1)NC(=O)[C@@H](CCCNC(=N)N)NC(=O)[C@@H](CO)NC(=O)[C@H](Cc1ccccc1)NC(=O)[C@H](CC1CCCCC1)NC(=O)[C@H](CC(=O)O)NC(=O)CCC(C(=O)O)N1CCCN2CCN(CCCN(CC(=O)O)CC2)CC1)C(=O)N[C@@H](Cc1c[nH]c2ccccc12)C(=O)N[C@@H](CO)C(=O)O` (stereo partly shown) [copper-64 labelled], the tissue uptake was 3.7 ± 0.8 %ID/g (female NMRI nude mice, intestine; 1 h p.i.).
`N=C(N)NCCC[C@@H]1NC(=O)[C@H](CCCCNC(=O)CNC(=O)CNC(=O)CNC(=O)CC[C@H](NC(=O)CNC(=O)CNC(=O)CNC(=O)[C@H](CCCCNC(=O)c2ccc(NN)nc2)NC(=O)c2ccc(NN)nc2)C(=O)NCC(=O)NCC(=O)NCC(=O)NCCCC[C@@H]2NC(=O)[C@@H](Cc3ccccc3)NC(=O)[C@H](CC(=O)O)NC(=O)CNC(=O)[C@H](CCCNC(=N)N)NC2=O)NC(=O)[C@@H](Cc2ccccc2)NC(=O)[C@H](CC(=O)O)NC(=O)CNC1=O` [technetium-99m labelled] gave a tissue uptake of 0.13 ± 0.03 %ID/g (female athymic nude mice, brain; intravenous, 0.1 MBq, 1 h, U-87 MG glioma xenograft).
`N=C(N)NCCC[C@@H]1NC(=O)[C@H](CCCCNC(=O)CC[C@H](NC(=O)CCOCCOCCOCCOCCNC(=O)CN2CCN(CC(=O)O)CCN(CC(=O)O)CCN(CC(=O)O)CC2)C(=O)NCCCC[C@@H]2NC(=O)[C@@H](Cc3ccccc3)NC(=O)[C@H](CC(=O)O)NC(=O)CNC(=O)[C@H](CCCNC(=N)N)NC2=O)NC(=O)[C@@H](Cc2ccccc2)NC(=O)[C@H](CC(=O)O)NC(=O)CNC1=O` [indium-111 labelled] has a tissue uptake of 4.95 ± 0.39 %ID/g (athymic nude mice, female, U-87 MG glioma xenograft, U-87 MG tumour; intravenous, 3 µCi, 1 h).

A few entries again:
With `CSCC[C@H](NC(=O)[C@H](CC(C)C)NC(=O)[C@H](Cc1c[nH]cn1)NC(=O)CNC(=O)[C@@H](NC(=O)[C@H](C)NC(=O)[C@H](Cc1c[nH]c2ccccc12)NC(=O)[C@H](CCC(N)=O)NC(=O)CNC(=O)[C@H](CO)NC(=O)CNC(=O)CCCCCCCNC(=O)CCC(=O)Nc1ccc(CNC23CNCCNCC(N)(CNCCNC2)CNCCNC3)cc1)C(C)C)C(N)=O` [copper-64 labelled] the tissue uptake was 29.9 ± 1.6 %ID/g (female SCID mice, PC-3 xenograft, pancreas; intravenous, 0.6 MBq, 24 h).
